# Measured values from different studies.
# Every numbered part comes from another study and shows a few of its results, in no order.
# UniProt P42679, sequence (whole entry, looked up): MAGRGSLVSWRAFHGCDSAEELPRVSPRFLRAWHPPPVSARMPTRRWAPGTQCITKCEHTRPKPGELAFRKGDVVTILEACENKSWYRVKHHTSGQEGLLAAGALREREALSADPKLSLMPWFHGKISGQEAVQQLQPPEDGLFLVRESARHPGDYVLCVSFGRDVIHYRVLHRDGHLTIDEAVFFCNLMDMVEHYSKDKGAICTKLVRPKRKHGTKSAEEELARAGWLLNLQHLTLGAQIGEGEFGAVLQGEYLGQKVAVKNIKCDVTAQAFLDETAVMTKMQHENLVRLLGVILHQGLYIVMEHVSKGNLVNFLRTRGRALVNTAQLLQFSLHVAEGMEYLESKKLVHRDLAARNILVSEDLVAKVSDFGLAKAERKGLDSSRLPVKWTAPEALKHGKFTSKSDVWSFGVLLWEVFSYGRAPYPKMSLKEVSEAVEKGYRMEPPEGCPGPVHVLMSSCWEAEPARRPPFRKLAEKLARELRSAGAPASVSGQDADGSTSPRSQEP
# UniProt Q13523, sequence (whole entry, looked up): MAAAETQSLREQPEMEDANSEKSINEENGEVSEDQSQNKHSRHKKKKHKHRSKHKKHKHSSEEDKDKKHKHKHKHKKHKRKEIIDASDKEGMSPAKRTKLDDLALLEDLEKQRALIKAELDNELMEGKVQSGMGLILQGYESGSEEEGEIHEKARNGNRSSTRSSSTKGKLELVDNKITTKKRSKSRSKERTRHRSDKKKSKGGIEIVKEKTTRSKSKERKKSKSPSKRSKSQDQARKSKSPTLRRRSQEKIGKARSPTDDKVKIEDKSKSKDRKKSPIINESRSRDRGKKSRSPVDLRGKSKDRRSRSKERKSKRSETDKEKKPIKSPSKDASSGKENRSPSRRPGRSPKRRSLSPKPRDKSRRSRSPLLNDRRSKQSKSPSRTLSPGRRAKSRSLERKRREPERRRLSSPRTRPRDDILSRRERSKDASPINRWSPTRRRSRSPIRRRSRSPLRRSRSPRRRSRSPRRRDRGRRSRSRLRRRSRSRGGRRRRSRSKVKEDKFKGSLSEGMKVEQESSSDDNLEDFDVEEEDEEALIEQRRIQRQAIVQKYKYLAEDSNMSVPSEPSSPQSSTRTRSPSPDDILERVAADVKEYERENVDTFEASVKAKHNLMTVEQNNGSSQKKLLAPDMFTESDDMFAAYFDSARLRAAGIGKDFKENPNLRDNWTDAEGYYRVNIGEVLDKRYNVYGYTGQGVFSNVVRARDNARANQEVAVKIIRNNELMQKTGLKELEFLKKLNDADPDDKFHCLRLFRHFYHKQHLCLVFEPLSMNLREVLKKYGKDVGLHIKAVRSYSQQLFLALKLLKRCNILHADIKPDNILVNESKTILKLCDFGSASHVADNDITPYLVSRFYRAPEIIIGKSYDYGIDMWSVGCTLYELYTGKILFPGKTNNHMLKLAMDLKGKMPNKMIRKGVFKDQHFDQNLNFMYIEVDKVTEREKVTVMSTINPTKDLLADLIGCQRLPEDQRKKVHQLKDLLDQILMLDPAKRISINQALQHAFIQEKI
# UniProt Q9Y3S1, sequence (whole entry, looked up): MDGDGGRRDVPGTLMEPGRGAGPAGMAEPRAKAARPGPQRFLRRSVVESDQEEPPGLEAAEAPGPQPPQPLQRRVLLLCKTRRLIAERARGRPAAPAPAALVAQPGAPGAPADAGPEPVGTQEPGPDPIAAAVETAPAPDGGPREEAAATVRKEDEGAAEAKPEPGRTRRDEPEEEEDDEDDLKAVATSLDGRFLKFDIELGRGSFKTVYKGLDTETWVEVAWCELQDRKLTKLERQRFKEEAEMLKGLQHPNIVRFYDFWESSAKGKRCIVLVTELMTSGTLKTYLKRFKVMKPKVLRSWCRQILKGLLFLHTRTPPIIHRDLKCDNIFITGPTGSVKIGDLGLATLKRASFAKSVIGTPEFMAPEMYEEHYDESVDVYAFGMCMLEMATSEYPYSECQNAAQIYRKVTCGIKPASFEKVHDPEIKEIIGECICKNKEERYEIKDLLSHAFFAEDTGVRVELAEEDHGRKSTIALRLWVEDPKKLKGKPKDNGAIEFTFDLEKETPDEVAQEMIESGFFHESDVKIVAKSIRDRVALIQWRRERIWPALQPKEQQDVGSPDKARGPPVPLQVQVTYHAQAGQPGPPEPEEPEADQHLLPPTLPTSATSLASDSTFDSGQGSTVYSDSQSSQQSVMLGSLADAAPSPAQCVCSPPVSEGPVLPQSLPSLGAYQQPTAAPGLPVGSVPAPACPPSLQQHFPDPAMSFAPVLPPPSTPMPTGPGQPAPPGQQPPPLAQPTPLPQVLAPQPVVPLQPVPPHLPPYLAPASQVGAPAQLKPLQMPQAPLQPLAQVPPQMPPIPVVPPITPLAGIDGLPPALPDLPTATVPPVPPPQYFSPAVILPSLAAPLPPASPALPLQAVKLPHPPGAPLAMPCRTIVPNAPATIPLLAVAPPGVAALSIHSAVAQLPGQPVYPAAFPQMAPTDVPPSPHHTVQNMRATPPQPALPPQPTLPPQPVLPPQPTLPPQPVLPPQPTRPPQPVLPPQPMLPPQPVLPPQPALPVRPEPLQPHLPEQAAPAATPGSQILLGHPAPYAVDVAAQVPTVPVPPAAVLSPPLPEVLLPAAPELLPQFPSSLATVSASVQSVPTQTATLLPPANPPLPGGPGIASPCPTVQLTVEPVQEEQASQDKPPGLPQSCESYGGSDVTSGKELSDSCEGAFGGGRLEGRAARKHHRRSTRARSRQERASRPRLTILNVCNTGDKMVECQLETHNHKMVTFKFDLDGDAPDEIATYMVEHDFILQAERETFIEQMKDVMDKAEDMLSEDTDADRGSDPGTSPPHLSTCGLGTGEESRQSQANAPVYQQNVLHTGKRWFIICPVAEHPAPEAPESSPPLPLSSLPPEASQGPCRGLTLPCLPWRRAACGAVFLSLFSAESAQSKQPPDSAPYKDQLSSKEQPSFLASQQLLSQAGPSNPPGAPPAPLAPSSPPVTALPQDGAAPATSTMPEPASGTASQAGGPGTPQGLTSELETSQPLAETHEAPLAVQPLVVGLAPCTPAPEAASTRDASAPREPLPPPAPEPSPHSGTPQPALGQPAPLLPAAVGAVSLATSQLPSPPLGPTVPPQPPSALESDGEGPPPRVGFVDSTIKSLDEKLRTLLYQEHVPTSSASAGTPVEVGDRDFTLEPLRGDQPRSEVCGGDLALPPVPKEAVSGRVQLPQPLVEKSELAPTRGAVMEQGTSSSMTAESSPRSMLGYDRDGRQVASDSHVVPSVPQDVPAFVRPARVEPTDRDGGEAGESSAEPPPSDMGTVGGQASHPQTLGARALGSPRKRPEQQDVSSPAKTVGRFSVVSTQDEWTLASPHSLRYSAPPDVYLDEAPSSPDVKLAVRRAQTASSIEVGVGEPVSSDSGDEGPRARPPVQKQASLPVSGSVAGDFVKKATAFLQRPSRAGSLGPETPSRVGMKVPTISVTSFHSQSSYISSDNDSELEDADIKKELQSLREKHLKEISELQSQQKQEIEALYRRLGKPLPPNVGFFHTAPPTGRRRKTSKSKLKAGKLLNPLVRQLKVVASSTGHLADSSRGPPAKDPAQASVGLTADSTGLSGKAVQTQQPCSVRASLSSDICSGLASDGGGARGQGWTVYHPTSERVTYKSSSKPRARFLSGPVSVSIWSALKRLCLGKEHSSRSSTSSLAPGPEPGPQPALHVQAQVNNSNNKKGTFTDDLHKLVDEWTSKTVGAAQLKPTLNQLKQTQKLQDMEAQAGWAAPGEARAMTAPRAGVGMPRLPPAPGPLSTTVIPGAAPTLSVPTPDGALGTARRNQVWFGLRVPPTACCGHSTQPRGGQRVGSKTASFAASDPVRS
# UniProt O75582, sequence (whole entry, looked up): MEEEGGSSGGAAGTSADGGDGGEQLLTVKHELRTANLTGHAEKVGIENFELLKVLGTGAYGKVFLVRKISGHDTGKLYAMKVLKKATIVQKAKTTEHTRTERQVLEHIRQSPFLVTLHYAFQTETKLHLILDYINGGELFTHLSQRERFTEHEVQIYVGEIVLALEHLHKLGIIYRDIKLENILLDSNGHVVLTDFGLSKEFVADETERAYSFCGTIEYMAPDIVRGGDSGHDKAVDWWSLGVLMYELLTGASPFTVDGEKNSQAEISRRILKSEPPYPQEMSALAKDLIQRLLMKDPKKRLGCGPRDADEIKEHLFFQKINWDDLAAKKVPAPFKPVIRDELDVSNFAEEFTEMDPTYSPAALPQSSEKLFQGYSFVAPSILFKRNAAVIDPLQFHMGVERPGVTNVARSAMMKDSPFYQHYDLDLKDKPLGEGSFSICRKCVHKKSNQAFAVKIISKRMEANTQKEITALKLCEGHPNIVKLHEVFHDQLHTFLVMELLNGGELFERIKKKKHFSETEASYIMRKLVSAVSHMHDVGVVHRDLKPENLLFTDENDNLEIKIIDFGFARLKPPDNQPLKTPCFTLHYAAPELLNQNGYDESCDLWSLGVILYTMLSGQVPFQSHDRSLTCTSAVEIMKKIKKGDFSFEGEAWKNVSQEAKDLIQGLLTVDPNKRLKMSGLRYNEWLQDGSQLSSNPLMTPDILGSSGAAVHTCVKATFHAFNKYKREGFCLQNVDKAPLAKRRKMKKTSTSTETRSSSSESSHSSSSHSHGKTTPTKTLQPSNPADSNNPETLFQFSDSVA

# Study 1
# Structure (SMILES): O=C(O)[C@H]1[C@H](Cn2nnc3ccccc3c2=O)CC[C@@H]1C(=O)c1ccc(OCCC2CCOCC2)cc1
# Tested at: 1 µM
target,test,remaining binding [%]
"ALK (Homo sapiens, UniProt Q9UM73, C1156Y)","cell-free assay, competition with immobilised ligand",100
"PRPF4B (Homo sapiens, UniProt Q13523)","cell-free assay, competition with immobilised ligand",67
"MAP2K7 (Homo sapiens, UniProt O14733)","cell-free assay, competition with immobilised ligand",96
"PDGFRB (Homo sapiens, UniProt P09619)","cell-free assay, competition with immobilised ligand",88
"SBK1 (Homo sapiens, UniProt Q52WX2)","cell-free assay, competition with immobilised ligand",68
"COQ8A (Homo sapiens, UniProt Q8NI60)","cell-free assay, competition with immobilised ligand",100
"MAPK1 (Homo sapiens, UniProt P28482)","cell-free assay, competition with immobilised ligand",100
"RET (Homo sapiens, UniProt P07949, M918T)","cell-free assay, competition with immobilised ligand",76
"MAPKAPK5 (Homo sapiens, UniProt Q8IW41)","cell-free assay, competition with immobilised ligand",99
"STK35 (Homo sapiens, UniProt Q8TDR2)","cell-free assay, competition with immobilised ligand",100
"MATK (Homo sapiens, UniProt P42679)","cell-free assay, competition with immobilised ligand",83
"WNK2 (Homo sapiens, UniProt Q9Y3S1)","cell-free assay, competition with immobilised ligand",99
"BMPR1B (Homo sapiens, UniProt O00238)","cell-free assay, competition with immobilised ligand",95
"Ribosomal protein S6 kinase alpha-5, C-terminal kinase domain (RPS6KA5, Homo sapiens, UniProt O75582)","cell-free assay, competition with immobilised ligand",100
"PRKD3 (Homo sapiens, UniProt O94806)","cell-free assay, competition with immobilised ligand",88
"FRK (Homo sapiens, UniProt P42685)","cell-free assay, competition with immobilised ligand",100
"NEK6 (Homo sapiens, UniProt Q9HC98)","cell-free assay, competition with immobilised ligand",100
"CDK19 (Homo sapiens, UniProt Q9BWU1)",competition binding,100

# Study 2
# Host: human
# Sample: microsomes or S9
# Tested at: 2 µM
# Time: 0.5 h
Compound,remaining compound
CCc1nn(C)c(Cl)c1CN1CCc2cc(F)c(F)cc21,53.8%
COc1cc(=O)[nH]cc1C(=O)N1CCCCC1c1cc[nH]n1 (stereo not drawn),> 99%
Cc1ccc2c(c1C)NC(=O)CC2c1c(F)cccc1Cl (stereo not drawn),28.6%
N#Cc1nc(-c2ccccc2F)oc1NCC1CCCO1 (stereo not drawn),20.1%
Cn1nnnc1NC(=O)c1ccc(C(F)(F)F)nc1N1CCC(C#N)(c2ccccc2)CC1,47.6%
CC(=O)N1CCN(C(=O)Cn2nc(C)c(C)c2C)CC(O)C1 (stereo not drawn),25.2%
COC(=O)CC(c1c(O)cc(C)n(CCc2ccc(O)cc2)c1=O)c1cnn2cccnc12 (stereo not drawn),18.4%
CCO[C@@H]1CCC[C@H](CC(=O)c2cccs2)[C@H]1C(=O)c1cccs1,2.81%

# Study 3
# Target: Mitogen-activated protein kinase kinase kinase 8 (MAP3K8, Homo sapiens, UniProt P41279)
# UniProt P41279, sequence (whole entry, looked up): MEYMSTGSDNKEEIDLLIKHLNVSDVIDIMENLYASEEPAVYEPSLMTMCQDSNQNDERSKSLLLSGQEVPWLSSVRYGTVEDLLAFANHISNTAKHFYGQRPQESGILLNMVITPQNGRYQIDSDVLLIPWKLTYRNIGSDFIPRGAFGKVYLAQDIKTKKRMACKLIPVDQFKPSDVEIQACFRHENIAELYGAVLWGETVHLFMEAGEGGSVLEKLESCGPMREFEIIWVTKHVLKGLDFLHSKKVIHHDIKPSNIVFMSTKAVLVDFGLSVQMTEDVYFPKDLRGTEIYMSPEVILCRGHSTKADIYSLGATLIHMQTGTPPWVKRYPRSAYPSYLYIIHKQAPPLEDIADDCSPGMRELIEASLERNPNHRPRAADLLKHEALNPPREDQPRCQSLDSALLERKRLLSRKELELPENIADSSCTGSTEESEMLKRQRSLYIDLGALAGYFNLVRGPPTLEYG
# Read-out: enzyme activity
# Mode: inhibitor
# Tested at: 0.5 µM
# Reference: control
SMILES,remaining activity [%]
CCN(CC)C(=O)c1ccc(Nc2nc(OCC3CCCCC3)c3[nH]cnc3n2)cc1,101
Ic1cccc(CSc2nnc(-c3ccncc3)o2)c1,96.1
O=C1c2ccccc2-c2n[nH]c3cccc1c23,109
c1ccc(-c2[nH]ncc2-c2ccnc3ccccc23)nc1,91.1
COc1cc2ncnc(Nc3cccc(Cl)c3)c2cc1OC,104
Cn1nc2c3c(cccc31)C(=O)c1ccccc1-2,94.3
Nc1cccc(-c2cc3c(Oc4cccc(O)c4)ncnc3[nH]2)c1,99.6
Cc1cc2ncc(-c3ccccc3)nc2cc1C,106
O=C(Nc1cccc(Nc2nccc(Nc3cccc(C(F)(F)F)c3)n2)c1)C1CC1,111
O=C1C(Cl)=C(N2C(=O)CCC2=O)C(=O)c2ccccc21,91.8
CCOc1nc(NC(=O)Cc2cc(OC)ccc2OC)cc(N)c1C#N,96.9
O=c1cc(-c2cccc3c2Sc2ccccc2S3)oc(N2CCOCC2)c1,103
N#Cc1c(NC(=O)c2cccc3ccccc23)sc2c1CCCC2,99.8
N#C/C(=C\c1ccc(O)c(O)c1)C(=O)NCc1ccccc1,98.1
Cc1nc2cc3nc(-c4cccs4)cnc3cc2n1C,99
CCN(CC)CCNC(=O)c1c(C)[nH]c(/C=C2\C(=O)Nc3ccc(F)cc32)c1C,117
COc1cc2ncnc(Nc3ccc(O)c(Br)c3)c2cc1OC,97.6
CCN(CC)CCNC(=O)c1c(C)[nH]c(/C=C2\C(=O)Nc3ccc(Cl)cc32)c1C,113
COc1cc2c(cc1OC)-c1[nH]nc(Nc3cccc(F)c3)c1C2,99.9
Cc1cn(-c2cc(NC(=O)c3ccc(C)c(Nc4nccc(-c5cccnc5)n4)c3)cc(C(F)(F)F)c2)cn1,95.1
CN(C)C[C@H]1CCn2c(c(C3=C(c4cn(C)c5ccccc45)C(=O)NC3=O)c3ccccc32)C1,95
CN([C@@H](Cc1ccc(OS(=O)(=O)c2cccc3cnccc23)cc1)C(=O)N1CCN(c2ccccc2)CC1)S(=O)(=O)c1cccc2cnccc12,99.3
C[C@@H]1CCN(C(=O)CC#N)C[C@@H]1N(C)c1ncnc2[nH]ccc12,93.5
c1ccc(-c2cnc(Nc3ccc(OCCN4CCCC4)cc3)s2)cc1,97.2

# Further values, each from its own experiment
Compound,test,test system,conditions,quantity,value
CC(C)n1cnc(-c2ccc(F)cc2)c1-c1ncc(C(=O)Nc2ccc(N3CCN(C)CC3)cc2)[nH]1,phase 2a trial,idiopathic pulmonary fibrosis patients,"dose not given, adverse event grade 2, all dose arms pooled",patients with cardiac failure,0%

# Some of these lines once more (study 1):
target,test,remaining binding [%]
"FRK (Homo sapiens, UniProt P42685)","cell-free assay, competition with immobilised ligand",100
"MAPKAPK5 (Homo sapiens, UniProt Q8IW41)","cell-free assay, competition with immobilised ligand",99
"MAPK1 (Homo sapiens, UniProt P28482)","cell-free assay, competition with immobilised ligand",100
"MATK (Homo sapiens, UniProt P42679)","cell-free assay, competition with immobilised ligand",83
"ALK (Homo sapiens, UniProt Q9UM73, C1156Y)","cell-free assay, competition with immobilised ligand",100
"BMPR1B (Homo sapiens, UniProt O00238)","cell-free assay, competition with immobilised ligand",95
"RET (Homo sapiens, UniProt P07949, M918T)","cell-free assay, competition with immobilised ligand",76
"CDK19 (Homo sapiens, UniProt Q9BWU1)",competition binding,100
